Results of several laboratories.
Every numbered part comes from another study and shows a few of its results, in no order. Substitutions count along the parent as printed.

Block 1
Target: Histone acetyltransferase KAT6A, both winged helices, GST fusion (KAT6A, Homo sapiens, UniProt Q92794, residues 1-181)
Technique: protein binding microarray
Molecule type: double-stranded DNA, one strand shown
Sample: in vitro
Tested at: not given
Notes: 8-mer, flanks averaged, mean of 2 arrays, mostly near background
Relative to: not given
Reading: higher = stronger binding
Construct (chain): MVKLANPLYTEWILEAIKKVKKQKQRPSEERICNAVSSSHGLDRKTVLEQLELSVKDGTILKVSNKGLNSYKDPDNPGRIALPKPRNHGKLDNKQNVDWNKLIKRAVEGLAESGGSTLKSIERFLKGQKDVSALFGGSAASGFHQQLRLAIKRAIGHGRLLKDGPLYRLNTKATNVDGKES
With `ACCCACCC` the E-score was -0.0977.
For `CCGGGGAA`, the E-score was 0.237.
`AATCCCGG` has an E-score of 0.154.
`ATCCAGGA` has an E-score of -0.0703.
`GCACGGGA` gave an E-score of 0.206.
With `TGAAATAA` the E-score was -0.0901.
`AGACGTCT` has an E-score of -0.089.
For `ACCGGTCC`, the E-score was 0.195.
`ATCAACGA` has an E-score of -0.0535.
For `ATGGAGAC`, the E-score was -0.166.
`CGGTACCA` has an E-score of 0.0227.
`CACTAGTG` has an E-score of 0.0426.
`GTCAGCGA` gave an E-score of 0.00336.
`CAACGCAA` gave an E-score of 0.14.
`AGTAGCAT` gave an E-score of -0.192.
With `ATGCATTG` the E-score was -0.187.
The E-score of `ATTTTTAC` is reported as -0.102.
`ATCAAGGG` gave an E-score of -0.151.
`GGAGGACA` has an E-score of -0.098.
The E-score of `GCTTAACC` is reported as 0.0672.
For `ACAGCGCG`, the E-score was 0.34.
For `AACGAAGT`, the E-score was -0.198.
With `CCCTCCGG` the E-score was 0.0722.
`CCATTGGG` gave an E-score of -0.131.
For `CCGGCTGA`, the E-score was 0.13.

Block 2
Target: CCNA2, cyclin fold, Cln2 fusion (human)
Technique: yeast growth competition, sequencing
Sample: yeast
Notes: strong parent motif
Relative to: not given
Reading: higher = stronger binding
Parent: PKN2 docking peptide (human); VSAVQKLDFSDTM; partner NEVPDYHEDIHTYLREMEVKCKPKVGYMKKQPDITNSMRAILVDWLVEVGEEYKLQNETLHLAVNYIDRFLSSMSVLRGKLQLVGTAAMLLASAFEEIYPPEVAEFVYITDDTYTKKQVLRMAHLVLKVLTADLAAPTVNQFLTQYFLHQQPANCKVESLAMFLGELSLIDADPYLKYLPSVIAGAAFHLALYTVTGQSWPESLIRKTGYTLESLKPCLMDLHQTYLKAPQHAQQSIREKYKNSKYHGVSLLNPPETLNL
`VSIVQKLDFSDTM [A3I]` — result for “normalised enrichment score”: 1.45.
`VSAVQKLDFSYTM [D11Y]` — result for “normalised enrichment score”: 1.37.
`VSAVQKLPFSDTM [D8P]`: “normalised enrichment score” 0.666.
For `VSAVQKLNFSDTM [D8N]`, “normalised enrichment score” read 1.83.
For `VSAVQKLDNSDTM [F9N]`, “normalised enrichment score” read 0.0241.
Under “normalised enrichment score”, `VSAVQKLDFSDFM [T12F]` is recorded as 1.99.
`VSAVQKLDFSDAM [T12A]`: “normalised enrichment score” 2.26.
`VSAVQKLDFSDTC [M13C]`: “normalised enrichment score” 2.06.
Under “normalised enrichment score”, `VSAVQFLDFSDTM [K6F]` is recorded as 0.28.
`VSAVQKLDFSDYM [T12Y]` — result for “normalised enrichment score”: 2.29.
`VSAVQKLDYSDTM [F9Y]` — result for “normalised enrichment score”: 0.867.
Under “normalised enrichment score”, `VSAVQKLDFEDTM [S10E]` is recorded as 2.13.
`VSAVQKLDFCDTM [S10C]`: “normalised enrichment score” 1.58.
Under “normalised enrichment score”, `VSAVQKLHFSDTM [D8H]` is recorded as 0.946.
For `VSAVQKLDKSDTM [F9K]`, “normalised enrichment score” read 0.0606.
For `VSAVQKLDFSLTM [D11L]`, “normalised enrichment score” read 1.74.
`VSAVQKLDFMDTM [S10M]` — result for “normalised enrichment score”: 1.3.
Under “normalised enrichment score”, `VSAVQKIDFSDTM [L7I]` is recorded as -0.176.
Under “normalised enrichment score”, `VSGVQKLDFSDTM [A3G]` is recorded as 0.0922.
For `VSAVQPLDFSDTM [K6P]`, “normalised enrichment score” read -0.011.
Under “normalised enrichment score”, `VSAVQKRDFSDTM [L7R]` is recorded as 0.021.
Under “normalised enrichment score”, `VSAVQKLDFSDIM [T12I]` is recorded as 2.14.
`VSAVQTLDFSDTM [K6T]` — result for “normalised enrichment score”: 0.338.
Under “normalised enrichment score”, `VSAVQSLDFSDTM [K6S]` is recorded as 1.8.
`NSAVQKLDFSDTM [V1N]`: “normalised enrichment score” 2.04.

Block 3
Target: UBE2Q1 UBC core domain (UniProt Q7Z7E8)
Sequence of UniProt Q7Z7E8 (whole entry, looked up): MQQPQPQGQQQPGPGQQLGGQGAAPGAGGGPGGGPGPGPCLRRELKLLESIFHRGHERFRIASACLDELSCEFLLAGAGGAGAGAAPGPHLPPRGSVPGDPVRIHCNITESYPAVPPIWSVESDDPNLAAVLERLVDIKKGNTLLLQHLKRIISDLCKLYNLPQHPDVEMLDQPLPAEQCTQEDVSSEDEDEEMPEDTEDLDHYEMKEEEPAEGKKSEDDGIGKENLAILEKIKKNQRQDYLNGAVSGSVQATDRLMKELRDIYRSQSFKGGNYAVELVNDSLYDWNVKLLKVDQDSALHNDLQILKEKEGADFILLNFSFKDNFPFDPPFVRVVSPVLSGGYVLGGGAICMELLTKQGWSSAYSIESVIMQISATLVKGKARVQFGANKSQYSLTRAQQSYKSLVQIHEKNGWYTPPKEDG
Technique: yeast two-hybrid
Sample: yeast
Notes: mostly zero background
Relative to: not given
Reading: higher = stronger interaction
B1: RNF19A RING domain (UniProt Q9NV58); chain ISKQIGDFIECPLCLLRHSKDRFPDIMTCHHRSCVDCLRQYLRIEISESRVNISCPECTERFNPHDIR
B2: RNF121 RING domain (UniProt Q9H920); chain MPTKHLSDSVCAVCGQQIFVDVSEEGIIENTYRLSCNHVFHEFCIRGWCIVGKKQTCPYCKEKVDLKRMFS
B3: MAP3K1 RING domain (UniProt Q13233); chain NSIKDEEEQMCPICLLGMLDEESLTVCEDGCRNKLHHHCMSIWAEECRRNREPLICPLCRSKWRSHDFYS
B4: RFWD3 RING domain (UniProt Q6PCD5); chain ASMDEEEGDTCTICLEQWTNAGDHRLSALRCGHLFGYRCISTWLKGQVRKCPQCNKKARHSDIVV
B5: ZMIZ2 RING domain (UniProt Q8NF64); chain GTIPGTPGPNGEDGVEQTAIKVSLKCPITFRRIQLPARGHDCRHIQCFDLESYLQLNCERGTWRCPVCNKTALLEGLEVDQYMLGILIYIQNSDYEEITIDPTCSWK
Under “lacZ reporter activity”, `KLRKLKEAMLCMVCCEEEINSTFCPCGHTVCCESCAAQLQSCPVCRSRVEHVQHVY (MYLIP RING domain (UniProt Q8WY64))` is recorded as 0.
`B1 (RNF19A RING domain)`: “lacZ reporter activity” 0.
`NLSELTPYILCSICKGYLIDATTITECLHTFCKSCIVRHFYYSNRCPKCNIVVHQTQPLY (PCGF6 RING domain (UniProt Q9BYE7))`: “lacZ reporter activity” 0.
For `GSRLQEINDVCAICYHEFTTSARITPCNHYFHALCLRKWLYIQDTCPMCHQKVYIEDDIK (RNF139 RING domain (UniProt Q8WU17))`, “lacZ reporter activity” read 0.
For `B2 (RNF121 RING domain)`, “lacZ reporter activity” read 0.
`B3 (MAP3K1 RING domain)` — result for “lacZ reporter activity”: 0.
Under “lacZ reporter activity”, `YQNEVDDDLVCHICLQPLLQPLDTPCGHTFCYKCLRNFLQEKDFCPLDRKRLHFKLCKK (LNX2 RING domain (UniProt Q8N448))` is recorded as 0.
Under “lacZ reporter activity”, `B4 (RFWD3 RING domain)` is recorded as 0.
`KETIKKTTKPCPRCHVPVEKNGGCMHMKCPQPQCRLEWCWNCGCEWNRVCMG (PRKN RING domain (UniProt O60260))`: “lacZ reporter activity” 0.
For `B5 (ZMIZ2 RING domain)`, “lacZ reporter activity” read 0.
For `AMYLQENGIDCPKCKFSYALARGGCMHFHCTQCRHQFCSGCYNAFYAKNKC (RNF31 RING domain (UniProt Q96EP0))`, “lacZ reporter activity” read 0.

Block 4
Target: ABI1, truncated, D143A, DHFR fusion (Arabidopsis thaliana)
Technique: DHFR PCA, deep sequencing
Sample: yeast
Notes: methotrexate growth selection, single substitutions
Together with: (+)-ABA 4.8 µM
Relative to: wild-type fitted maximum
Reading: higher = stronger binding
Parent: PYL1, truncated, DHFR fusion (Arabidopsis thaliana); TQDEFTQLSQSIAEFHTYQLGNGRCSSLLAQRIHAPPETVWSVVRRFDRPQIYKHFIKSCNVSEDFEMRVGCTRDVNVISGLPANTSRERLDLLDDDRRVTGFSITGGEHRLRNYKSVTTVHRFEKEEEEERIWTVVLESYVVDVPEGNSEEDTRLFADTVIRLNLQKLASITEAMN; partner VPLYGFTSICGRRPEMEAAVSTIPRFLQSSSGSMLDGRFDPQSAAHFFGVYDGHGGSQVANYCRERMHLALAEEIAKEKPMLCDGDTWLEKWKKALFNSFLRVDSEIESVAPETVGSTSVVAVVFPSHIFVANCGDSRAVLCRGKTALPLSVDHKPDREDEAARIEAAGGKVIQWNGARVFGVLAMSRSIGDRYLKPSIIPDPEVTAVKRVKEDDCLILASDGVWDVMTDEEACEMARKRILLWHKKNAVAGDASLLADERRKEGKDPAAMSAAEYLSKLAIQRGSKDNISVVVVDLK
`R98F` — result for “relative binding score”: 5.66%.
Under “relative binding score”, `S27R` is recorded as 16.6%.
For `V136F`, “relative binding score” read 37.1%.
For `Y141F`, “relative binding score” read 17.6%.
For `T106H`, “relative binding score” read 27.5%.
Under “relative binding score”, `N22M` is recorded as 70.9%.
`R163M`: “relative binding score” 32.7%.
Under “relative binding score”, `L29V` is recorded as 71.4%.
For `Q51D`, “relative binding score” read 69.1%.
`A158G`: “relative binding score” 0.367%.
Under “relative binding score”, `H110R` is recorded as 5.65%.
`E152I` — result for “relative binding score”: 41.1%.
`D97M` — result for “relative binding score”: 60.3%.
`D153A`: “relative binding score” -2.15%.
For `I57Y`, “relative binding score” read -4.1%.
Under “relative binding score”, `R88Y` is recorded as 66.2%.
`Q167V`: “relative binding score” 45.1%.
Under “relative binding score”, `D96H` is recorded as 7.34%.
`T173E` — result for “relative binding score”: 5.4%.

Block 5
Target: FOSL1, bZIP domain (human)
Technique: DHFR protein complementation
Sample: yeast
Notes: single substitutions, most at no-binding floor
Relative to: wild-type JUN-FOS pair
Reading: higher = stronger binding
Parent: JUN, bZIP domain (human); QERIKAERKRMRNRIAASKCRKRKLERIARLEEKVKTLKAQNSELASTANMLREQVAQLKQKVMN; partner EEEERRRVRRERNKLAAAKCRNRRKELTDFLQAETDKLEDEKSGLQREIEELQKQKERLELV
The binding fitness of `L38R` is reported as -1.39 natural log.
`L52E` gave a binding fitness of -1.42 natural log.
With `M51H` the binding fitness was -0.403 natural log.
For `Q41H`, the binding fitness was -0.679 natural log.
The binding fitness of `A49R` is reported as -0.146 natural log.
For `T37L`, the binding fitness was -0.286 natural log.
`E33L` has a binding fitness of -0.51 natural log.
The binding fitness of `A57Y` is reported as -0.559 natural log.
`T37D` has a binding fitness of -0.386 natural log.
`E54T` gave a binding fitness of -0.558 natural log.
With `I28F` the binding fitness was -0.682 natural log.
For `E32N`, the binding fitness was -0.63 natural log.
`Q55W` gave a binding fitness of -1.05 natural log.
`Q41I` gave a binding fitness of -0.412 natural log.
With `N42G` the binding fitness was -1.37 natural log.
`A29S` gave a binding fitness of -0.519 natural log.
The binding fitness of `N42Q` is reported as -1.22 natural log.
With `I28M` the binding fitness was -0.531 natural log.
With `N42R` the binding fitness was -0.762 natural log.
`L38K` gave a binding fitness of -1.42 natural log.
`M51G` gave a binding fitness of -0.576 natural log.

Repeated from above (block 3):
Under “lacZ reporter activity”, `KLRKLKEAMLCMVCCEEEINSTFCPCGHTVCCESCAAQLQSCPVCRSRVEHVQHVY (MYLIP RING domain (UniProt Q8WY64))` is recorded as 0.
`B1 (RNF19A RING domain)`: “lacZ reporter activity” 0.
`NLSELTPYILCSICKGYLIDATTITECLHTFCKSCIVRHFYYSNRCPKCNIVVHQTQPLY (PCGF6 RING domain (UniProt Q9BYE7))`: “lacZ reporter activity” 0.
For `GSRLQEINDVCAICYHEFTTSARITPCNHYFHALCLRKWLYIQDTCPMCHQKVYIEDDIK (RNF139 RING domain (UniProt Q8WU17))`, “lacZ reporter activity” read 0.
For `B2 (RNF121 RING domain)`, “lacZ reporter activity” read 0.
`B3 (MAP3K1 RING domain)` — result for “lacZ reporter activity”: 0.
Under “lacZ reporter activity”, `YQNEVDDDLVCHICLQPLLQPLDTPCGHTFCYKCLRNFLQEKDFCPLDRKRLHFKLCKK (LNX2 RING domain (UniProt Q8N448))` is recorded as 0.
Under “lacZ reporter activity”, `B4 (RFWD3 RING domain)` is recorded as 0.
`KETIKKTTKPCPRCHVPVEKNGGCMHMKCPQPQCRLEWCWNCGCEWNRVCMG (PRKN RING domain (UniProt O60260))`: “lacZ reporter activity” 0.
For `B5 (ZMIZ2 RING domain)`, “lacZ reporter activity” read 0.
For `AMYLQENGIDCPKCKFSYALARGGCMHFHCTQCRHQFCSGCYNAFYAKNKC (RNF31 RING domain (UniProt Q96EP0))`, “lacZ reporter activity” read 0.
